Measured values from different studies.
A part holds a random share of what one study measured. Positions count from the first letter of the parent shown.

Series 1
Target: Histone acetyltransferase KAT6A, winged helix 2, GST fusion (KAT6A, Homo sapiens, UniProt Q92794, residues 85-181)
Technique: protein binding microarray
Form: double-stranded DNA, one strand shown
Sample: in vitro
Tested at: not given
Notes: 8-mer, flanks averaged, mean of 2 arrays, mostly near background
Baseline: not given
Reading: higher = stronger binding
Residues (chain): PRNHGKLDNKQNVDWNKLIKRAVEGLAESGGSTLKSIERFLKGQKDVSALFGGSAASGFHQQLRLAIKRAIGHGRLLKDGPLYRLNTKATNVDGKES
| Oligonucleotide | E-score |
| --- | --- |
| GTGTCTCA | -0.0209 |
| GCGTATCC | 0.0166 |
| CTTTGATC | -0.0618 |
| CGTACGAC | -0.131 |
| GAATCCTC | -0.221 |
| AACACCGT | -0.116 |
| AATCCTGG | -0.0406 |
| CACAGGGG | 0.011 |
| CTTCATCC | -0.0109 |
| CTTGCCGA | 0.179 |
| AGGTAGCG | -0.0158 |
| ACAAGCTC | 0.151 |
| ACAGTAAA | -0.0247 |
| CGTCTTGC | 0.0602 |
| AGTTCAAA | 0.0709 |
| CGCAGTCA | -0.0317 |
| ATGGTACA | -0.136 |
| ACATGGAA | -0.0402 |
| CATAAACA | 0.0828 |
| CTTGCCCA | 0.0378 |
| GGACAGGA | 0.095 |
| CAGTCTTC | -0.104 |
| AAAGTTAT | 0.111 |
| AAACGAAT | -0.0848 |

Series 2
Target: RNA binding protein fox-1 homolog 2, RRM domain, GST-SBP tag (RBFOX2, Homo sapiens, UniProt O43251-10, residues 100-194)
Technique: RNA Bind-n-Seq
Form: RNA
Sample: in vitro
Tested at: 365 nM
Notes: natural RNA segment, single round, ends assumed
Baseline: no-protein control
Reading: higher = stronger binding
Constant ends, left off below: GGGAGUUCUACAGUCCGACGAUC … UGGAAUUCUCGGGUGCCAA
Residues (chain): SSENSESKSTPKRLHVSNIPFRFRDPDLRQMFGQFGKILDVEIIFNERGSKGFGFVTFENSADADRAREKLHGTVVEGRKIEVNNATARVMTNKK
| Oligonucleotide | RBNS enrichment (R) |
| --- | --- |
| GUGGGCACAAAAUGACAGAACAUAGGACAUUCUAAAGUUCCUUGAUUUGAUCAUUAUAAGAAGUGUGGGACUCAAGCACAGGAAACUGAACUCUUUUGGUGUCAUUGGAU | 0.776 |
| UUUGAAGUUCCAGUCCUCCCUUUGGAGUGGACAUUUAAAAUCUGCAGCCAUUCCUUGCUUCAGUUCCCUUCCACCACCCAGGGCUGGCUUUCCUAUAAGCCACCUCCAGG | 0.199 |
| GCCCAACCUUAGGAAUAUAGUGCCCCAAAAGGCGGAUGCUUCUUCCAUUAUCUUAUUUUCUUUGAUACUUUAUUUAAUUAGAUGUUUAUAAAGAAAUGGGUUUAUUUUUC | 0.446 |
| CCUAAAUUAAAAAUGCCAAAUAUAUCAUGCCUCCAUCCUUUAUACUUCUAAAAUAAAAUCUCUAGUCCAGACAUAUUUGACAGUAUUGUUUGUCUGAAUGUGAAAUAUCC | 2.1 |
| CCCGUGUGCUGUUAAUAGUGUGAAAUUGUCAUGUUAAAAAAAAAAACAGGAACCAAAUGUGACCUUGUGCAUAUAUUGGUAGCUGAAAAUCUUCAAGGCUACUGAUGGGU | 0.557 |
| AACCCUUCCAGUCCCAGUGCUGCCAAGCGGCGCCGCACGUAACCCUCAGCCCUGGUGGCGGCAGAGAAGCGGGCGAGGCACUGUGGUCGCUGAGGGGGUUGGCUGGGUCU | 0.319 |
| AGACGAAAUAGUGACAUAAUAUAUUCUAUUUUUAUACUCUUCCUAUUUUUGUAGUGACCUGUUUAUGAGAUGCUGGUUUUCUACCCAACGGCCCUGCAGCCAGCUCACGU | 0.227 |
| UUUUUGAAUUAUGAAAAAUAGCAAUAUUAAAAUUUAUAAUUGAGGAAUUUAUAGAAAGAUGACAUGCUUUUCUUAUAAUUGAUCACUUAAUUUUUUUAAUUAAAUACUCU | 1.25 |
| UGAGAGGAACUAUACUACCAAAAGAGCCCAAAUGACCAAAUCCAUGGAUAAUUGCUUCACAGCCUUGGCCAUCCUGGCUCAGCUCUCAAUUUAGUAUAAUAUGCAGUUCC | 0.44 |
| GUGCAGGAAAACAGGACAGACAGAGAGCACCUGAACCCUUGCCAUCUGAUGUCACCAAUUCAGGAAAACGAGUCCUCUCCUAGGACUAUCCCCGGUUCUGGAAAUCAUGU | 0.396 |
| GGUAGUCCCAGCACUUGGAGAAGGCUGGAGGACCAGAAUUCAAGGCUAUCCUUGGCUACACAGUGAAUUUGAGACCAGCUUGGGCUCAUGAGACCCUGUCUCAAGGAAAA | 0.446 |
| GGCAUAAGCUGGACUUUGUCGCCACUAGAUGACAAGAUGGUAUACCUAAGCUAACCACACGUGUGUAUCUCAAGGGACUUAAAUUCAGCUGUCUGUAGUGAAUUCAAGUG | 0.328 |

Series 3
Target: CCND1, cyclin fold, Cln2 fusion (human)
Technique: yeast growth competition, sequencing
Sample: yeast
Notes: weak parent motif
Baseline: not given
Reading: higher = stronger binding
Parent: MASTL docking peptide (human); PMIAKNLMCELDE
| Change | normalised enrichment score |
| --- | --- |
| I3F | 0.149 |
| A4Q | -0.216 |
| M2C | 0.218 |
| I3V | 0.213 |
| C9S | 0.21 |
| L11D | -0.135 |
| M8W | 0.446 |
| E10C | -0.0725 |
| L11V | 0.138 |
| D12F | 0.269 |
| A4R | 0.0528 |
| A4T | 0.135 |
| I3D | 0.0836 |
| N6T | 0.0802 |
| I3C | 0.4 |
| C9P | 0.234 |
| I3L | 0.174 |
| I3Q | 0.11 |
| M2L | 0.244 |
| A4W | 0.604 |
| I3E | 0.193 |
| N6V | -0.121 |
| C9Y | -0.121 |
| M8R | 0.0984 |
| M8H | 0.218 |

Series 4
Target: Probable WRKY transcription factor 33, C-terminal DNA-binding domain (WRKY33, Arabidopsis thaliana, UniProt Q8S8P5, residues 346-449)
Technique: DNA-protein interaction ELISA
Form: double-stranded DNA, one strand shown
Sample: in vitro, bacterial lysate
Tested at: not given
Notes: whole dsDNA probe, crude lysate protein
Baseline: highest signal in screen
Reading: higher = stronger binding
Residues (chain): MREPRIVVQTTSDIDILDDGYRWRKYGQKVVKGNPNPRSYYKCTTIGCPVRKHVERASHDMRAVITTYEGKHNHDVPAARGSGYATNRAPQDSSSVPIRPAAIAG
| Oligonucleotide | relative absorbance |
| --- | --- |
| AAAAAATTCTAGCTTTTAACTTTAGCAAAA | 32 % of maximum |
| AAAAAACATTCCTAGTTCATGTTACTAAAA | 56.2 % of maximum |
| AAAAAATTACGTTTGTATTTGTAAAA | 39.7 % of maximum |
| AAAAAAAACTGTCGCCCCCGGCTGGCAAAA | 39.3 % of maximum |
| AAAAAAGTATAACGTGTTGTTGACCGAAAA | 99.4 % of maximum |
| AAAAAACTCCCTCTCCTCTGTCTTCCAAAA | 29.2 % of maximum |
| AAAAAATAGTGTGATTGGTATCCAGTAAAA | 56.6 % of maximum |
| AAAAAAAGTATCAAAGCCTAGGGCTGAAAA | 44.3 % of maximum |
| AAAAAAATGATTTGCAGATCTCCGAGAAAA | 48.4 % of maximum |
| AAAAAATTCAAAATGATCACTACGGGAAAA | 33.4 % of maximum |
| AAAAAATCCATGTTTAAGCTGGTCTCAAAA | 44.4 % of maximum |
| AAAAAAGCTTTCAACATCTGCGTCCAAAAA | 34.6 % of maximum |
| AAAAAAGTCGTTACACGTATGCGTGCAAAA | 97.7 % of maximum |
| AAAAAAGTGTTTGTGCTTCTCTCTGTAAAA | 39.4 % of maximum |
| AAAAAACATGTCGCACCTGTACTAACAAAA | 43 % of maximum |
| AAAAAAGCGCGCCCGCACTGTTAATAAAAA | 33.5 % of maximum |
| AAAAAATGGTCGATCCGCATGCAGTTAAAA | 38.8 % of maximum |
| AAAAAATAATATCGATACTCATGCCCAAAA | 33.2 % of maximum |
| AAAAAATTTATACTTGATCCTGGCTTAAAA | 29 % of maximum |
| AAAAAAATGTTCAAGCTCGATCTACAAAAA | 42.6 % of maximum |
| AAAAAAGCCTTTACCCTTGTTCCTCTAAAA | 42 % of maximum |
| AAAAAAGGGGTCCTTTTCCAATGTCTAAAA | 29.2 % of maximum |
| AAAAAAGGTGAGGAAGTTGGGTATGGAAAA | 29.8 % of maximum |

Series 5
Target: MAFF, bZIP domain (human)
Technique: DHFR protein complementation
Sample: yeast
Notes: single substitutions, most at no-binding floor
Baseline: wild-type JUN-FOS pair
Reading: higher = stronger binding
Parent: JUN, bZIP domain (human); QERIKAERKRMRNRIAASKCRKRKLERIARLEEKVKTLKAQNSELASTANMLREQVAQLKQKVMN; partner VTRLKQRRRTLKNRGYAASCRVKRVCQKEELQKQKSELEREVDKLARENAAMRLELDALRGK
| Change | binding fitness |
| --- | --- |
| Q41E | -1.45 natural log |
| K34H | -1.27 natural log |
| A49L | -1.19 natural log |
| K36T | -1.47 natural log |
| K39C | -1.47 natural log |
| T37L | -1.23 natural log |
| M51R | -1.21 natural log |
| A49M | -1.47 natural log |
| T37A | -1.32 natural log |
| E44N | -1.46 natural log |
| K34G | -1.45 natural log |
| R53W | -1.49 natural log |
| Q55F | -1.57 natural log |
| E44D | -1.18 natural log |
| T48F | -1.46 natural log |
| T37I | -1.47 natural log |
| L31D | -1.24 natural log |
| L31N | -1.49 natural log |
| L52E | -1.49 natural log |
| I28T | -1.45 natural log |
| E33I | -1.46 natural log |

Series 6
Target: ABI1, truncated, D143A, DHFR fusion (Arabidopsis thaliana)
Technique: DHFR PCA, deep sequencing
Sample: yeast
Notes: methotrexate growth selection, single substitutions
Added: (+)-ABA 0 µM
Baseline: wild-type fitted maximum
Reading: higher = stronger binding
Parent: PYL1, truncated, DHFR fusion (Arabidopsis thaliana); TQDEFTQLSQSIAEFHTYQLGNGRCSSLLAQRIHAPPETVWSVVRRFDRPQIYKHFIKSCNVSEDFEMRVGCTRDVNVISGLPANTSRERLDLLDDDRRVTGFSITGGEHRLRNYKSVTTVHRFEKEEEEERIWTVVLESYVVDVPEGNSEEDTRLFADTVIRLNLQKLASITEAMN; partner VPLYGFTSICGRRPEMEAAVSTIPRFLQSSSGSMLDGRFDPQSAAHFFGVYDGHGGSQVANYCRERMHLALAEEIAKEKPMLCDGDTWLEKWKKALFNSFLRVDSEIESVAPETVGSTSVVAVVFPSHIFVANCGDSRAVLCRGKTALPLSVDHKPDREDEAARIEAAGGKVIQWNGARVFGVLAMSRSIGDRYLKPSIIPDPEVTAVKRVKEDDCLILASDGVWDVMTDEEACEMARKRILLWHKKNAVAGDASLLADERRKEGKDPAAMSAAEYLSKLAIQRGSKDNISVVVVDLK
| Change | relative binding score [%] |
| --- | --- |
| I133Y | 19.6 |
| I105P | -4.89 |
| R132N | 24.7 |
| S27D | -4.24 |
| K126V | 34.8 |
| P36L | 9.11 |
| E67N | 11.8 |
| F15D | 1.87 |
| Y18K | -1.04 |
| G81E | 9.43 |
| G81V | 0.896 |

Mixed results
| Substance | target | test | test system | setting | how to read | measurement | result |
| --- | --- | --- | --- | --- | --- | --- | --- |
| PhoQ, residues 284 288 289 292 302 303 TASMAF | PhoP, residues 12 14 15 18 19 TPLRH (Escherichia coli, UniProt P23836) | Sort-seq, item: YFP reporter | E. coli | PhoQ-PhoP variant library, added: 10 µM Mg2+ | baseline: high Mg2+ state, higher = stronger signaling | fold induction | 2.28 |

Excerpt of the above (series 3):
| Change | normalised enrichment score |
| --- | --- |
| A4Q | -0.216 |
| M2C | 0.218 |
| I3V | 0.213 |
| C9S | 0.21 |
| L11D | -0.135 |
| M8W | 0.446 |
| E10C | -0.0725 |
| L11V | 0.138 |
| D12F | 0.269 |
| A4R | 0.0528 |
| A4T | 0.135 |
| I3D | 0.0836 |
| N6T | 0.0802 |
| I3C | 0.4 |
